Results pooled from the literature.
Every numbered part comes from another study and shows a few of its results, in no order.

Study 1
Target: Ras GTPase-activating protein-binding protein 1, RRM domain (G3BP1, Homo sapiens, UniProt Q13283)
Chain of UniProt Q13283 (whole entry, looked up): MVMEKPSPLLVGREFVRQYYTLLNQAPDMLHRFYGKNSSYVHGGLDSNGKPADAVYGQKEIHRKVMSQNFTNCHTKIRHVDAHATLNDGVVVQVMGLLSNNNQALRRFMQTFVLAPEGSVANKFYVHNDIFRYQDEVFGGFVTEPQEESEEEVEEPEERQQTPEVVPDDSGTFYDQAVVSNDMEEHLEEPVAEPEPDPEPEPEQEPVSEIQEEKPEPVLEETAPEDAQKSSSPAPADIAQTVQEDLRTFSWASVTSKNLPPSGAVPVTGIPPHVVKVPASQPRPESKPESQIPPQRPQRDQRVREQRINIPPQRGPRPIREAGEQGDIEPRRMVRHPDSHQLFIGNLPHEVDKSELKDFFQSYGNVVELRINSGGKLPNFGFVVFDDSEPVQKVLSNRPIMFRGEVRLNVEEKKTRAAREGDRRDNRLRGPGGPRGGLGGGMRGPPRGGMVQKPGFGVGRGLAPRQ
Technique: RNA Bind-n-Seq
Form: RNA
Matrix: in vitro
Tested at: 1 µM
Notes: whole 134-nt RNA, ends assumed
Added: 150 mM KCl
Reference: input library
Reading: higher = stronger binding
Sequence	log2 enrichment
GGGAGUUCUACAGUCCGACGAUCUCAAGUCCUGUGCUACACAUCGUAUGUACCGAAUCGGUUUUUGGUUUGGUUUGGAAAGUAUUAUGUUACGCCGUUCGGAUCUGCACUUCCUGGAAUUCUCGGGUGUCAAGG	-0.247
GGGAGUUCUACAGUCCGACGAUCUUCCGCCUCUUUCCGGAGUACAAGAACAACAAACUUUUCCUGACCGGGGAGAGCUAUGCUGGCAUCUACAUCCCCACCCUGGCCGUGCUGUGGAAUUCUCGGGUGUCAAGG	0.2
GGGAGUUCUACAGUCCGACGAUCUCAAGUCCUGUGCUACACAUCGUAUGUACCGAAUCGGCCCGGGCCCGGGGCCCGGAAAGUAUUAUGUUACGCCGUUCGGAUCUGCACUUCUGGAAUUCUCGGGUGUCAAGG	-0.551
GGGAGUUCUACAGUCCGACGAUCAGUCCUGUGCUACACAUCGUAUGUACCGAAUCGGUUUUGGGGUUUUGGGGUUUUGGGAAAGUAUUAUGUUACGCCGUUCGGAUCUGCACUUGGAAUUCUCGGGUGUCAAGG	-0.121
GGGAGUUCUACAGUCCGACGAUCCACAGACAACACGCACCCACACAGACACAGAGGGAAGGGUUUGGGAUGGGGACAGGGUGCACAGCAGGGCGGGGUAGGACCCCAGCCCCUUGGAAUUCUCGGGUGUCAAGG	-0.103
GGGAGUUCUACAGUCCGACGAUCCUCAAGUCCUGUGCUACACAUCGUAUGUACCGAAUCGGCCCGGCCCGGCCCGGGAAAGUAUUAUGUUACGCCGUUCGGAUCUGCACUUCCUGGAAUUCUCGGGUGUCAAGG	-0.905
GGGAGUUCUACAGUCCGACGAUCUCAAGUCCUGUGCUACACAUCGUAUGUACCGAAUCGGGGCCCGGCCCGGCCCGGGAAAGUAUUAUGUUACGCCGUUCGGAUCUGCACUUCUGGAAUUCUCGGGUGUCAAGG	-0.998
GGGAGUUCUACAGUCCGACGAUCGUCCUGUGCUACACAUCGUAUGUACCGAAUCGGGUUUUUGGGGUUUUUGGGUUUUUGGGAAAGUAUUAUGUUACGCCGUUCGGAUCUGCAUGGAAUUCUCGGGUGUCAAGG	0.293
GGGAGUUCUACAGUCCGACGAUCUGCUGUGCAGCGGCAUCGGCCCACUGUGGUGGAAUGUCUACGGGAAACUGAUGCCUCCCUCAGCCGGUGAGCAGUGAUAGAGGGGACAGGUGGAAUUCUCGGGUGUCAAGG	-0.566
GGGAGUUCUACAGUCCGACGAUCCCUGUGCUACACAUCGUAUGUACCGAAUCAAACCCCCCCAAAUUUUUUUAAACCCCCAAAAAAGUAUUAUGUUACGCCGUUCGGAUCUGCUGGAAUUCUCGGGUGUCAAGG	-0.704
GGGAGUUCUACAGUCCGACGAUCGCAGGAAGUAAAAACAAAUGGAAAUGCUUCGGAUAGUGGCAGGGGUGGGGGUUGCCAAGGAAAGGGUGGGAUGGGAGUGGGUAAAGAGUUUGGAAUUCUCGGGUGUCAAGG	1.5
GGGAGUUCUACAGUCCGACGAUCGUCCUGUGCUACACAUCGUAUGUACCGAAUCGGAAAAAGGGGAAAAAGGGGAAAAAGGAAAGUAUUAUGUUACGCCGUUCGGAUCUGCACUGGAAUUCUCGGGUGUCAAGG	0.0144
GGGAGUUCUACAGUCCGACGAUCCACAGACAACACGCACCCACACAGACACAGAGGGAAGGGGUUGGGAUGGGGACAGGGUGCACAGCAGGGCGGGGUAAGACCCCAGCCCCUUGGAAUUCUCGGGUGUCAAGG	-0.271

Study 2
Target: Histone acetyltransferase KAT6A, both winged helices, GST fusion (KAT6A, Homo sapiens, UniProt Q92794, residues 1-181)
Technique: protein binding microarray
Form: double-stranded DNA, one strand shown
Matrix: in vitro
Tested at: not given
Notes: 8-mer, flanks averaged, mean of 2 arrays, mostly near background
Reference: not given
Reading: higher = stronger binding
Residues (chain): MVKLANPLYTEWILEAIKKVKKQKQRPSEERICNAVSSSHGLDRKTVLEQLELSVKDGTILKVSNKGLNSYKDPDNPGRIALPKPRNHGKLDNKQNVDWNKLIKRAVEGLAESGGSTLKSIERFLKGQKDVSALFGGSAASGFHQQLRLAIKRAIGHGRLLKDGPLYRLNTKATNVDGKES
Sequence	E-score
AACATATT	-0.0142
CCACCACA	-0.178
GAGACGCA	0.218
CCGCAAGG	0.137
ATGACTGG	-0.212
AAAATGCG	0.258
AGATGGAG	-0.137
GGCACAGA	0.0917
AAGATGCG	-0.0217
ACACGGAG	0.258
CACGCATA	0.0993
GACCCACC	-0.0624
ACTCCCCA	-0.246
CGCGCACG	0.374
ACGCCCCA	-0.0806
CGGTTCAC	0.188
CACCAGGG	-0.239
ACTTCCAC	-0.101
TCCCAACA	-0.215
ACCTCGCC	0.0887
ATTGAGAC	-0.0318
ATCCATCG	-0.0896

Study 3
Target: RNA binding protein fox-1 homolog 2, RRM domain, GST-SBP tag (RBFOX2, Homo sapiens, UniProt O43251-10, residues 100-194)
Technique: RNA Bind-n-Seq
Form: RNA
Matrix: in vitro
Tested at: 365 nM
Notes: natural RNA segment, single round, ends assumed
Reference: no-protein control
Reading: higher = stronger binding
Residues (chain): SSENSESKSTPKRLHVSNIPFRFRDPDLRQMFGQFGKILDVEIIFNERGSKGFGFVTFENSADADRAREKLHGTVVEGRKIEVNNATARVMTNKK
Sequence	RBNS enrichment (R)
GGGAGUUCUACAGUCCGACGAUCCUGCCAGUGCCUUACAUUCUGGAGCGACCCCCCUCCCUGGUGCCUCCCAGCGAAGGGGGACCGCCGUUUGCACUUUCAUCGCCUACCCCGACGCGGGGCCCAGCUGCGGGUGGAAUUCUCGGGUGCCAA	0.366
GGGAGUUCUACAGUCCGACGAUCGCUUGACAAUUCGAAAAUGAACCAAUGAUGUGCUGUGGAAUGUGAUGGUUGUCUUCAUAUAGAGUCACAUGGUUUCUCUUUUUAUGCAGAUAUUUAUAAUCUUCAUCCUAUGGAAUUCUCGGGUGCCAA	0.577
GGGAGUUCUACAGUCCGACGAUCCAGUAUUCAGGAAUAUGUGAUUUUAGGAGUUUCUGAUCCUGUGUGUCAGAAUGGCACUAGUUCAGUUUAUGUCCCUUCUGAUAUAGUAGCUUAUUUGACAGCUUUGCUCUUGGAAUUCUCGGGUGCCAA	0.358
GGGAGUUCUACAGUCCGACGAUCUUAACAGUGGCAUAUUUAGGCAUGGAAAUAUUAUUAUGAAAUUUAUUUUCAGGAUCUGCUAUAAGGUUGAAAUUUAGCCCAGCUCUAGGCAUUUUACAAAUUAUUUUUCAUGGAAUUCUCGGGUGCCAA	1.19
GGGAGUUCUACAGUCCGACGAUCACAGCCCCAGGAGGGUGUCAACACCAGCAAAUGCUGUAUUUGCAGCAUGUCCAAGAUGACCCUUCUCCCCUACCUCUACCUAGCCACUGGCAGGGAGGGGAGACAGUGGUUGGAAUUCUCGGGUGCCAA	0.42
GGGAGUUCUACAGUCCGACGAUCCUGCCCCACCAAAUGCUCAACCUUAGGUGGAAUCUCCCUGGAACACAUACCAGGUCAGGGAGGGCCGAUCCUUCCUCCACCUUUUUCCUGGCAUAUGUUUAAGGUAACAAUGGAAUUCUCGGGUGCCAA	0.312
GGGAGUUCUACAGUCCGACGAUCCAAGAAAUACCCGCUCCUCACCUACUCCCUCAUCCUACCAAGGUGCCUGAAAAUGUUCAAGACUUAUGUUCAGGGUGGGAUGAUGGAACCGAGGGCUUCAUCAAAGUGAGUGGAAUUCUCGGGUGCCAA	0.465
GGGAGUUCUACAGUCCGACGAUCCCCAUCCCUGGAUAUAUUGCCUUUUCAGCAGCCUCGGGUUCAGUGUGCUUGGGGUCAGGAGUGCCAGGUUCCCAAGAGCAGCGUAAAACAUCCCUGUACCCCUUGACAGUUGGAAUUCUCGGGUGCCAA	0.488
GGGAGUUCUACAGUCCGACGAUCCAGACAAGAAGCUUCCUGAAAUGGACAUUGAUUGUUCCAACACUUGUUUCUAUUAAAACAGACUAUUAUAAAGCUUUAAGUUGUCAACUUUGUUCUAAAUAUCAACUAGCUGGAAUUCUCGGGUGCCAA	0.403
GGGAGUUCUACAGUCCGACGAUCCUAGACGGGGCGGUCGGGUGCCUGCGGCCUCGCCCGCACGCCUAGAGUCUCGCCCGAUCCCAUCGGCAUCCCGGGGAGGGCCCGGGAGCCUCCGUCAACCGUCCUCUAAUUGGAAUUCUCGGGUGCCAA	0.264
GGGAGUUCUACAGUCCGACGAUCCGGAAUCCACUUAGGCAUGUGUCCCCUGAUGGAUGAAUACAUGGGAAUGGUGGAUACUGUCUUCUGACUCAGGCUCUAGGCUCCAUGGCUUCCUCUCUCUGGUCCUGCCAUGGAAUUCUCGGGUGCCAA	0.262
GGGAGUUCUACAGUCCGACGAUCCUACAUGUAAGACAUAUGUUACUGUGUGGAGGACAUAAAACUUUUCAGUUCUGGGGUGGCCAUUGCAUUCACUAAUCAGGGUCUGAAAAGGGAGGUGUGUGUGUGUGUGUUGGAAUUCUCGGGUGCCAA	0.556

Study 4
Target: Sal-like protein 4, full length isoform A (SALL4, Homo sapiens, UniProt Q9UJQ4, residues 1-1053)
Chain of UniProt Q9UJQ4 (whole entry, looked up): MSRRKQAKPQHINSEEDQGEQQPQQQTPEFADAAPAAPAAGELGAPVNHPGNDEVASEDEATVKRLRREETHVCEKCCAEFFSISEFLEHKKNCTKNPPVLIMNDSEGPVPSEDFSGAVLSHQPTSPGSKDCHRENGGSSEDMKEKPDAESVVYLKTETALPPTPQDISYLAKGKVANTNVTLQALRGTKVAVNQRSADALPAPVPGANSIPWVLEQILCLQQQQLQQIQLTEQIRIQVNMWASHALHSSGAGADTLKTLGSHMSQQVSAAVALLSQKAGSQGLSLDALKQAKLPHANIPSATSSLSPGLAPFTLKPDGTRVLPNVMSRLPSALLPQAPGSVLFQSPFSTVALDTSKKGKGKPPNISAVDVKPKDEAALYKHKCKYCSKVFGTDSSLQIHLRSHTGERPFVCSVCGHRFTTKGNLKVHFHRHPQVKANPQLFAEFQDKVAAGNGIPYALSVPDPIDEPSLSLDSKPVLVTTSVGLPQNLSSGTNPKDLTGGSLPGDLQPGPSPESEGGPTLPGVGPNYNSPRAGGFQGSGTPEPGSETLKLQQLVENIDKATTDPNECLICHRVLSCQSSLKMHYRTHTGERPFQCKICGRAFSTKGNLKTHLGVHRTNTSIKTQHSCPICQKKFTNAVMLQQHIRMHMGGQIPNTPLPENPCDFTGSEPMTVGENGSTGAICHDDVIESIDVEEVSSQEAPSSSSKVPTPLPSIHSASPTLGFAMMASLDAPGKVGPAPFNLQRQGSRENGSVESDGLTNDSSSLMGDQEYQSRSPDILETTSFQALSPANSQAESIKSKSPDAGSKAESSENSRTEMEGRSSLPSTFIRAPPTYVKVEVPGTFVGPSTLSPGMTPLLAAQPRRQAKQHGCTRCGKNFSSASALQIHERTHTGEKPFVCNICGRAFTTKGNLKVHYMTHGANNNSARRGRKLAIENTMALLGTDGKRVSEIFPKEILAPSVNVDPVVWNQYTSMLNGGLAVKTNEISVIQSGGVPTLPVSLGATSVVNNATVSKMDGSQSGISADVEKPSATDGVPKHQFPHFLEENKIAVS
Technique: universal PBM
Form: double-stranded DNA, one strand shown
Matrix: in vitro
Tested at: 600 nM
Notes: 8-mer, flanks averaged, mean of replicates
Reading: higher = stronger binding
Sequence	E-score
CAAACCCA	0.0978
ACAGTCGT	0.0177
TCTCACCA	0.0682
GAAAGATC	-0.151
CGCGCAAC	-0.214
TCGTCCAA	0.0843
CCCTGTAG	-0.113
AGACCTCT	-0.167
CATAACTA	0.372
TCCCGCAA	-0.0426
CATCTACA	0.174
AGTATTTC	0.191
CCGCTCCC	-0.37
AAAGTGAG	0.118
CTGCATAA	0.21
AGCGGGCC	-0.352
CCCATCAC	-0.181
GTTTTCTA	0.178

A few entries again (study 2):
Sequence	E-score
AAAATGCG	0.258
AGATGGAG	-0.137
GGCACAGA	0.0917
AAGATGCG	-0.0217
ACACGGAG	0.258
CACGCATA	0.0993
GACCCACC	-0.0624
ACTCCCCA	-0.246
CGCGCACG	0.374
ACGCCCCA	-0.0806
CGGTTCAC	0.188
